{"data": "Assay results of several laboratories", "note": "Each numbered part is a random draw from the data of one study; scales do not carry over between parts. Substitutions count along the parent as printed."}
{"data": "Sample 1", "target": "CCNE1, cyclin fold, Cln2 fusion (human)", "technique": "yeast growth competition, sequencing", "medium": "yeast", "setting": "weak parent motif", "reference": "not given", "direction": "higher = stronger binding", "parent": "RB1 docking peptide (human); PKPLKKLRFDIEG"}
{"Variant": "PKPLKKIRFDIEG [L7I]", "normalised enrichment score": 0.438}
{"Variant": "PKPLKKLRFDIYG [E12Y]", "normalised enrichment score": 1.08}
{"Variant": "PKPLKKLRFQIEG [D10Q]", "normalised enrichment score": 0.0829}
{"Variant": "PDPLKKLRFDIEG [K2D]", "normalised enrichment score": -0.217}
{"Variant": "PKPLKKLRFDKEG [I11K]", "normalised enrichment score": 0.326}
{"Variant": "PKPLGKLRFDIEG [K5G]", "normalised enrichment score": 0.4}
{"Variant": "PKPLKKLRFDITG [E12T]", "normalised enrichment score": 0.831}
{"Variant": "PKPLKCLRFDIEG [K6C]", "normalised enrichment score": 0.5}
{"Variant": "PKPPKKLRFDIEG [L4P]", "normalised enrichment score": 0.373}
{"data": "Sample 2", "target": "Ras GTPase-activating protein-binding protein 1, full length (G3BP1, Homo sapiens, UniProt Q13283)", "technique": "RNA Bind-n-Seq", "molecule type": "RNA", "medium": "in vitro", "tested at": "200 nM", "setting": "whole 134-nt RNA, ends assumed", "together with": "150 mM KCl", "reference": "input library", "direction": "higher = stronger binding", "shared flanks, not repeated": "GGGAGUUCUACAGUCCGACGAUC … UGGAAUUCUCGGGUGUCAAGG", "sequence of UniProt Q13283 (whole entry, looked up)": "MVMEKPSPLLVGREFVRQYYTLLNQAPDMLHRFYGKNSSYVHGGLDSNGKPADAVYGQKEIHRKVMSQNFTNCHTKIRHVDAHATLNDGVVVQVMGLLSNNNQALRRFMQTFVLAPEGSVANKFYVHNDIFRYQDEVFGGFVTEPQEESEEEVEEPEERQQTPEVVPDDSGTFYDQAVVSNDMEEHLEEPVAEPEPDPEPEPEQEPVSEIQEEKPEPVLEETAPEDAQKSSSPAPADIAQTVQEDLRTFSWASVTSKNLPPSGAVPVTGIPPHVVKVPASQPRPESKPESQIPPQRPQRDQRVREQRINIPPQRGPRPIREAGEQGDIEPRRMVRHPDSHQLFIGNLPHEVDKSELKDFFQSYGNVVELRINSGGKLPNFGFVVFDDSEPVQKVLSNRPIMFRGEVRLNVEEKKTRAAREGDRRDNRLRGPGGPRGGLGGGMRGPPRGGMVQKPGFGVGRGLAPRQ"}
{"Strand": "ACCAUGCAGGUGGGCAUCUUUGGGAAGUGGGGCAAGGGGGGGAUAGGGAGGGGGGUAACACUUUGGGAACAGGUGGUCCCAGGUCGUUGC", "log2 enrichment": 1.32}
{"Strand": "CACAGACAUCACGCACCCACACAGACACAGAGGGAAGGGGUUGGGAUGGGGACAGGGUGCACAGCAGGGCGGGGUAGGACCCCAGCCCCU", "log2 enrichment": 1.78}
{"Strand": "CACAGACAACACGCACCCACACAGACACAGAGGGAAGGGGUUGGGAUGGGGACAGGGUGCACAGCAGGGCGGGGUAGGACCUCAGCCCCU", "log2 enrichment": 1.7}
{"Strand": "ACCAUGCCGGUGGGCAUCUUUGGGAAGUGGGGCAAGGGGGGGAUAGGGAGGGGGGUAACACUUUGGGAACAGGUGGUCCCAGGUCGUUUC", "log2 enrichment": 1.49}
{"Strand": "GUCCUGUGCUACACAUCGUAUGUACCGAAUCGGUUUUUGGGGUUUUUGGGGUUUUUGGAAAGUAUUAUGUUACGCCGUUCGGAUCUGCAC", "log2 enrichment": -0.469}
{"Strand": "UCCUGUGCUACACAUCGUAUGUACCGAAUCGGGAAAAAAGGGGAAAAAAGGGAAAAAAGGAAAGUAUUAUGUUACGCCGUUCGGAUCUGC", "log2 enrichment": -0.486}
{"Strand": "CACAGACAACACGCACCCACACAGACACAGAGGGUAGGGGUUGGGAUGGGGACAGGGUGCACAGCAGGGCGGGGUAGGACCCCAGCCCCU", "log2 enrichment": 1.98}
{"Strand": "CUCAAGUCCUGUGCUACACAUCGUAUGUACCGAAUCGGAAAAAGGUUUGGAGGAAAGUAUUAUGUUACGCCGUUCGGAUCUGCACUUCCA", "log2 enrichment": -0.844}
{"Strand": "UAACUUUAGAGGAGGAUCUGAUGGAUAUGGCAGUGGACGUGGAUUUGGGGAUGGCUAUAAUGGGUAUGGAGGAGGACCUGGAUGUGGCAA", "log2 enrichment": 0.196}
{"data": "Sample 3", "target": "RNA binding protein fox-1 homolog 2, RRM domain, GST-SBP tag (RBFOX2, Homo sapiens, UniProt O43251-10, residues 100-194)", "technique": "RNA Bind-n-Seq", "molecule type": "RNA", "medium": "in vitro", "tested at": "365 nM", "setting": "natural RNA segment, single round, ends assumed", "reference": "no-protein control", "direction": "higher = stronger binding", "shared flanks, not repeated": "GGGAGUUCUACAGUCCGACGAUC … UGGAAUUCUCGGGUGCCAA", "Construct (chain)": "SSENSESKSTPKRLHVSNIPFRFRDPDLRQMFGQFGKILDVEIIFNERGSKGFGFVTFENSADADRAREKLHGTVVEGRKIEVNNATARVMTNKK"}
{"Strand": "AGAAAGUAUUGAGCCAUGACUUUUUAAAAAUAAUUUAUAUUUAUACUGGUCAAUAAUGAAGGUUUUUUUUUAUUAUUAAAGAACUUGAUUUUAUAAUUCUGCAGCAGAUG", "RBNS enrichment (R)": 1.08}
{"Strand": "GGGAAGAGCUAUACUUCUGGAGAAGUAGGCCUGGAGUUACUACAGUAUGGGGGAAAAGGGUCGAGUUAGAACAAAGCUAAGGCAAUUCCUAUUGCUUCCUUGCGCAACUU", "RBNS enrichment (R)": 0.612}
{"Strand": "UCUGUAACUUUUGCUAAACACUUUAUACAUUUUUAAUGUUGAAAAGCAGUGUCUCCUGCCAGAACUCCUCACCCAGGAUGAAUGUGUUUACUCCACGCUGUAUAUCUUUC", "RBNS enrichment (R)": 0.435}
{"Strand": "CUUUAGACUAUAACAUUUGUUGUAAUAAUUGCUAGGUUGAAGUUCAACAUGUAAAAAAAGGGGGCAUGGAUUUACAUUGCAAAAGGUGUCCACAGUGUAUUAGUGACAUU", "RBNS enrichment (R)": 0.552}
{"Strand": "UCCCACGAAGGCCAGACGCUGAUUUUAUUUUCUCAUUUCCACAGAUUGACAAGGAUAAGUCAGUUGUUUGUAAACUCUAGGUAGCAGAUGAGAAAUAAUUCACUUAAUAU", "RBNS enrichment (R)": 0.512}
{"Strand": "UGGACUCUGAUGAAGAUGACGAUUAUUGACUACAAGUGCUCACAGACUAGAACUUAACGGAACAAGUCUAGGACAGAAGUUAAGAUCUGAUUAUUUACUUUGUUUAUUGU", "RBNS enrichment (R)": 0.314}
{"Strand": "ACUUCAGACAUGCAUCAGUAGGAAAUAACUUGAGAAAUUCAUAUGGUUAUGUUACAAAUUCAUAUUCUGUUACUACAGUAAACGUUAAGAGUUUUAAACAGUUAAGAUUG", "RBNS enrichment (R)": 0.581}
{"Strand": "UUUCAACACCUGGCCCUUGCUCUCCUGCCCGUGCCAGGACUCCCUAACUCAGGGAGGGAGGGGAGGUCCUUAGCUGGGGGAAAGGAGGCGAGGGUCCUUACUGCUGUGUA", "RBNS enrichment (R)": 0.533}
{"Strand": "AAAACUUCCAGGAUUUUGCAAAGUUGUAUAUAUUUAAUGCUGUGCAACUGCUAAACUAUGCAGUUUUUCUUGAAGGAACUAAAAGCAACUAGCUCCCUAAUGGUCUAUAA", "RBNS enrichment (R)": 0.556}
{"Strand": "UAGGUAAACCGCUUGCCUUCAUCUUGAGUCGGAAUAUAUUUAAAUAAAUUGUGUUAUCUCUUGCCAAACAUUUUGUUAGUGUUUAUUUAAAAACAAAAUGUUGUUUCUUA", "RBNS enrichment (R)": 0.774}
{"Strand": "CCCAUUCCUGCUGCAUCCUGCCUGUGCCCCACAGCAAGCUUUCCACCCCCCAGGGAGGACCCAGCCCUGGCUUUGGGGCUAUUCUGCAGGGUUGUCUAGAGGAGUGGGGA", "RBNS enrichment (R)": 0.557}
{"data": "Single results of other studies"}
{"Molecule": "PhoQ, residues 284 288 289 292 302 303 ALVSVA", "target": "PhoP, residues 12 14 15 18 19 SEGLL (Escherichia coli, UniProt P23836)", "assay": "Sort-seq, item: YFP reporter", "system": "E. coli", "setting": "PhoQ-PhoP variant library, together with: 10 µM Mg2+", "how to read": "reference: high Mg2+ state, higher = stronger signaling", "endpoint": "fold induction", "value": 14.8}
{"note": "Repeated from above (sample 1):"}
{"Variant": "PDPLKKLRFDIEG [K2D]", "normalised enrichment score": -0.217}
{"Variant": "PKPLKCLRFDIEG [K6C]", "normalised enrichment score": 0.5}
{"Variant": "PKPLKKLRFDIYG [E12Y]", "normalised enrichment score": 1.08}
{"Variant": "PKPLKKLRFDKEG [I11K]", "normalised enrichment score": 0.326}
{"Variant": "PKPLKKLRFDITG [E12T]", "normalised enrichment score": 0.831}
